Published values gathered from unrelated publications.
Every numbered part comes from another study and shows a few of its results, in no order. Changes are numbered by the printed parent chain.

Set 1 — target: CCNF, cyclin fold, Cln2 fusion (human); technique: yeast growth competition, sequencing; sample: yeast; setting: strong parent motif; baseline: not given; direction: higher = stronger binding
Starting sequence: TICRR docking peptide (human); TKVRRNLFNQELL
| Change | normalised enrichment score |
| --- | --- |
| E11A | 5.54 |
| N6A | 7.53 |
| T1A | 7.04 |
| V3A | 4.64 |
| R5K | 2.88 |
| L13A | 7.24 |
| R4A | 5.37 |

Set 2 — technique: protein binding microarray; molecule type: double-stranded DNA, one strand shown; sample: in vitro; concentration: not given; baseline: not given; direction: higher = stronger binding
Target: Histone acetyltransferase KAT6A, both winged helices, GST fusion (KAT6A, Homo sapiens, UniProt Q92794, residues 1-181)
Setting: 8-mer, flanks averaged, mean of 2 arrays, mostly near background
Residues (chain): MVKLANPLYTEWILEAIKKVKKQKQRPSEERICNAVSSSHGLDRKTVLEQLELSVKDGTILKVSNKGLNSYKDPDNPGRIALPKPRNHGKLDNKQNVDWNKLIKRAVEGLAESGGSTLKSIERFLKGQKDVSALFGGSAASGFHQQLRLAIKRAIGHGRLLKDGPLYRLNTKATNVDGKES
| Strand | E-score |
| --- | --- |
| ACGACTAA | -0.141 |
| GTCGAGAC | -0.0724 |
| GCAGATCC | 0.00724 |
| AGACAAGC | -0.0921 |
| CTGCAAAA | -0.149 |
| CTCTCCCC | -0.252 |
| ATAGCCGG | 0.273 |
| CACTGTAC | -0.0739 |
| CGAGTATA | -0.0358 |
| AACGCCTT | 0.165 |
| CTATAAAG | -0.0188 |
| TACCGCCA | 0.11 |
| CCTTAGGC | -0.038 |
| CAAGAGTC | -0.115 |
| CTTGGGCC | -0.056 |
| CGCAACCA | 0.08 |
| ACGTCCGC | 0.243 |
| CCGTTAAA | 0.134 |
| CTATTCGA | -0.128 |
| CTGTACTC | -0.198 |
| GTTGCAGA | -0.0759 |
| TGGCACAA | -0.236 |
| AGAGTCAC | -0.139 |
| CCCCGTGC | 0.231 |
| ACCTATGA | -0.0485 |

Set 3 — technique: RNA Bind-n-Seq; molecule type: RNA; sample: in vitro; concentration: 365 nM; baseline: no-protein control; direction: higher = stronger binding
Target: RNA binding protein fox-1 homolog 2, RRM domain, GST-SBP tag (RBFOX2, Homo sapiens, UniProt O43251-10, residues 100-194)
Setting: natural RNA segment, single round, ends assumed
Shared flanks, not repeated: GGGAGUUCUACAGUCCGACGAUC … UGGAAUUCUCGGGUGCCAA
Residues (chain): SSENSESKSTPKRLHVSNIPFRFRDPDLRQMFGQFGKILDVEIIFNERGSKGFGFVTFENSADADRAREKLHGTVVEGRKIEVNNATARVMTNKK
| Strand | RBNS enrichment (R) |
| --- | --- |
| UGAAUUCGGGCAAUGUGAAUUGAUUAAUUAGAAAAGGGUCAAAAGAAAUACAAUGGAUGUGGAAACUAAUUCUAAAAAAUAGCCCUAUUAAUAGGGCAGAGACUCUGGUC | 0.522 |
| UUUGGUGCUUUCAACUCAUUGGGAAGAGCUGCAGAUAUUACCAAAAUAGGCUGGCUACAUGAACACUGUCAGAAAUCCCAGACUUGCCCACAAGGAUAAUGCUGCAUUUU | 3.79 |
| CUUCAGGAAAUCACUGUAUUAGGAAUGUGCAAUGACUUAUAUAAAUAAAGCCAUUUUUUGAAACUGCUGGGGCCUGUGUUCUAAUUAUUCCCCCCUUUUUUAUUUCUGUU | 1.27 |
| CUUUCUGAUCCCAGGAGCUCAGCUCGACUGUUAACAUCUGAAGCUUAUUCUCUUCCUUCCCGCUGGGGGGAGACGGCAUUAUCUUGUUCUGGGGCCUGACCCACCUUGGC | 0.406 |
| GCAGCCCCUCUUCAGAGCCCCUGUAAAUGCUAUCGCAGCCUGAGUCCUGCCGCCUUCCAGUUCCUUGGUGUCCCGUGCACCCCUUCUGUCUGUCCCCUUUCAUGGCUGUG | 0.51 |
| CCUCCCCACCCGGGGAAGCCAUCACAGCUCAUCUGCCCGCGGCUGCGUGAGGACAGCAGGGGUUUUUCUUCAGAGUCUAUUUUUUCAGCGACAAGGACCCAGGUCUUCCU | 0.753 |
| GGCCAACUAAUAUAAAAUACCAUUGUUAAAGAAUGGUACUUUUAUAAACAUUAGUGUAUUUAUUUCCUAUGUGUUAAUAUGAAGAUCAGAAAUUAUUUUUUGCACUUUGG | 0.701 |
| AGUUGAGUCAUUUCGCAAACAUUUACUGAGCACCUCCUGUGUGCCAGGCUCCUAGAAAGACAGGGAGUUGGUGCCCUGCACAGAUGACAAACUGCCCCAGACAGCAGACA | 0.371 |
| CGUGCUCCAGCCACCCCUGAGCUGAGGCUCCCAUUGUCUCCAUCAGAGCCUGCAUGUGUAUGCCGUCCUCCCCUGGUCCGGUGUUUGUGUUCCCCACCCCUCACAGACUG | 4.91 |
| CAAAAGAUGUUUGUUUCUUAUUCAUUCCACUUUUGUCUCCUGGGAUCCCUUCUGUAGCCUAAAGUAUGGCUGGGAAAUGGACUUGAGAAGAUUGGCUUGAAUUAGAUCAU | 0.837 |
| AUCUGGAAUUGUUUCUAAAUAUAAGUCAUUUGUAGCAAGACUUUGGAAGCAUUCUUUCUUAAACAUAUUCCUUUAUGUUCAGUAGUUAAGAGAACCAGGGCCCACGGCGG | 0.307 |
| AGAUCCAUCUGCCUGAGACCCCCGAACUCCUCUCCUCCCAAGCAGAGGCGAGUGAGUGGCAUUAGCUCCCGGACCCAUUCCCGGUCCUAGCUGGGCAUGGGGCUGACGGA | 0.219 |

Set 4 — technique: universal PBM; molecule type: double-stranded DNA, one strand shown; sample: in vitro; concentration: not given; direction: higher = stronger binding
Target: Sal-like protein 4, full length isoform B (SALL4, Homo sapiens, UniProt Q9UJQ4-2, residues 1-616)
Setting: 8-mer, flanks averaged, mean of replicates
| Strand | E-score |
| --- | --- |
| CACCGCAG | -0.1 |
| CCGATGTA | -0.0765 |
| CACACCCA | -0.0886 |
| AATGGTAC | 0.165 |
| TCTTATCA | 0.286 |
| GAACGCTC | -0.352 |
| GTCGCAGA | -0.129 |
| GCCCTGCA | -0.203 |
| CCCATGGA | -0.125 |
| TATAACAA | 0.368 |
| CTAGTTCC | -0.0472 |
| TAGAGATA | 0.121 |
| ACGTTCAA | 0.122 |
| ATCGGCAC | -0.0516 |
| ACACTTCG | 0.061 |
| CATGTGCG | 0.0177 |
| TCTGGGCA | -0.25 |
| ACCAGTCT | -0.214 |
| CAGATCCA | -0.0364 |

Set 5 — technique: protein-binding microarray; molecule type: double-stranded DNA, one strand shown; sample: in vitro; concentration: not given; direction: higher = stronger binding
Target: Protein C-ets-1 (ETS1, Homo sapiens, UniProt P14921, residues 1-441, K379A, full length assumed)
Setting: k-mer, scored over probes, only values ≥0.25
Target sequence (chain): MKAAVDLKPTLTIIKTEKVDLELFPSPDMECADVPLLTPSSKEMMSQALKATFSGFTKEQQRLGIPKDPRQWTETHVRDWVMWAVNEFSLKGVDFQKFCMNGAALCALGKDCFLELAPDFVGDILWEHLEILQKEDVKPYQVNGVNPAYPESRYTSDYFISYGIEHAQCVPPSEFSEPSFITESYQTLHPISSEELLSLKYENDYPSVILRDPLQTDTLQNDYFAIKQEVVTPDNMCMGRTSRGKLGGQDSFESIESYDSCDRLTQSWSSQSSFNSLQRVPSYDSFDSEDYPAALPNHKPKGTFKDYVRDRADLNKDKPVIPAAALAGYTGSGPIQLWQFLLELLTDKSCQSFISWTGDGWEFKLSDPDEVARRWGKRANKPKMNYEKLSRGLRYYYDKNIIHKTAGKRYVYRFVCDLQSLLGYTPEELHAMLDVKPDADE
| Strand | E-score |
| --- | --- |
| GTAGGACA | 0.262 |
| GTCGGTGA | 0.274 |
| ACCTATAT | 0.295 |
| ACAACTTC | 0.285 |
| ATACAGAT | 0.259 |
| GCAATCAA | 0.277 |
| CCGACAGA | 0.313 |
| AATCCCCG | 0.319 |
| ACTGCCGG | 0.311 |
| GTCGTTCA | 0.301 |
| TACAGTAA | 0.287 |
| GTTACACA | 0.27 |
| AACTACCA | 0.278 |
| ACACCCGG | 0.308 |
| GCAATAAC | 0.251 |
| CACATCCG | 0.298 |
| CGATATCC | 0.277 |

Set 6 — technique: aptamer microarray, sandwich; molecule type: DNA with 2'F-ANA; sample: in vitro; concentration: 200 nM; added: Cy3 exosite-II aptamer, 400 nM; direction: higher = stronger binding; strand: GGTTGGTGTGGTTGG
Target: Prothrombin, mature alpha-thrombin (F2, Homo sapiens, UniProt P00734)
Setting: whole 15-mer aptamer, many near background
| Modification | mean fluorescence intensity [a.u.] |
| --- | --- |
| 2'F-ANA at 1 3 11 12 13 | 447 |
| 2'F-ANA at 3 4 5 6 8 11 12 14 | 53.1 |
| 2'F-ANA at 1 2 3 6 9 12 | 386 |
| 2'F-ANA at 1 2 4 6 7 11 12 13 14 | 66.3 |
| 2'F-ANA at 2 7 8 12 14 15 | 260 |
| 2'F-ANA at 2 4 5 8 10 12 13 | 57.9 |
| 2'F-ANA at 1 2 6 9 12 | 291 |
| 2'F-ANA at 2 3 4 7 9 11 13 | 460 |
| 2'F-ANA at 2 3 5 9 11 13 | 73.2 |
| 2'F-ANA at 2 3 4 5 8 10 11 14 | 48.9 |
| 2'F-ANA at 2 3 5 6 8 9 10 11 14 | 51.4 |
| 2'F-ANA at 1 2 4 5 7 14 | 46.9 |
| 2'F-ANA at 1 2 3 4 6 9 10 11 | 63.6 |
| 2'F-ANA at 2 3 5 9 10 11 12 14 | 56.1 |
| 2'F-ANA at 1 2 3 4 10 11 12 13 14 | 50.9 |
| 2'F-ANA at 1 2 7 10 14 | 47.7 |

Excerpt of the above (set 5):
| Strand | E-score |
| --- | --- |
| AATCCCCG | 0.319 |
| ACTGCCGG | 0.311 |
| GTCGTTCA | 0.301 |
| TACAGTAA | 0.287 |
| GTTACACA | 0.27 |
| AACTACCA | 0.278 |
| ACACCCGG | 0.308 |
| GCAATAAC | 0.251 |
| CACATCCG | 0.298 |
